Results gathered from unrelated publications.
Lines come from different studies, so protocols differ. ± marks the error that the study gave.

SMILES	assay	system	conditions	tissue uptake
N=C(N)NCc1ccc(C(=O)NCCCC[C@H](NC(=O)CCCCCCC(=O)NCCCC[C@H](NC(=O)N[C@@H](CCC(=O)O)C(=O)O)C(=O)O)C(=O)O)cc1[131I]	–	SCID mouse, PC-3 xenografts, lungs	1 h	1.39 ± 0.36 %ID/g
CC(C)C[C@@H](NC(=O)[C@@H](CCCNC(=N)N)NC(=O)[C@@H](Cc1c[nH]cn1)NC(=O)[C@@H](Cc1c[nH]c2ccccc12)NC(=O)[C@@H](Cc1c[nH]cn1)NC(=O)[C@@H](Cc1ccccc1)NC(=O)[C@H](NC(=O)[C@@H](Cc1ccc(O)cc1)NC(=O)CNC(=O)CNC(=O)CCOCCOCCOCCNC(=O)CN1CCN(CC(=O)O)CCN(CC(=O)O)CC1)[C@H](C)O)C(=O)N[C@H](CC(N)=O)C(=O)N1CCC[C@@H]1C(=O)O [gallium-68 labelled]	static PET	male C57BL/6 mice, tumour	intravenous, 60 min	3.76 ± 0.68 %ID/g
CCCC[C@H](NC(=O)CN1CCC(NC(=O)CN2CCC(NC(=O)CN3CCN(CC(=O)O)CCN(CC(=O)O)CCN(CC(=O)O)CC3)CC2)CC1)C(=O)N[C@H]1CC(=O)NCCCC[C@@H](C(N)=O)NC(=O)[C@H](Cc2c[nH]c3ccccc23)NC(=O)[C@H](CCCNC(=N)N)NC(=O)[C@@H](Cc2ccccc2)NC(=O)[C@H](Cc2c[nH]cn2)NC1=O [gallium-68 labelled]	–	C57BL/6J mice male B16-F10 tumour, fat	1 h post injection, unblocked	0.1 %ID/g
COc1cc2ccnc(Cc3ccc(O[11CH3])c(OC)c3)c2cc1OC	–	Sprague-Dawley rats, liver	intravenous, 0.5 h	1.49 ± 0.464 %ID/g
N=C(N)NCc1ccc(C(=O)NCCCC[C@H](NC(=O)N[C@@H](CCC(=O)O)C(=O)O)C(=O)O)cc1[131I]	–	SCID mouse, PC-3 xenografts, brain	1 h	0.11 ± 0.07 %ID/g
O=C(c1ccc(F)cc1)C1CCN(C2Cc3c(cccc3OCC[18F])CC2O)CC1 (single isomer, unassigned; (-))	–	Sprague-Dawley rat, male, kidney	intravenous, dose not given, 60 min	0.604 ± 0.092 %ID/g
COc1ccc(C)cc1NC(=O)OC1CC2CCCC(C1)N2Cc1ccc(CC[18F])cc1 (stereo not shown)	–	BALB/c mice, EMT6 tumour, muscle	5 min	4.6 ± 0.76 %ID/g
CN[C@](C)(C[18F])C(=O)O	–	SCID mouse SK-OV-3 xenograft, pancreas	15 min post injection	42 ± 2.8 %ID/g
CCNc1cc2[o+]c3cc(NCC)c(C)cc3c(-c3ccccc3C(=O)OCCOCC[18F])c2cc1C	–	rat, thyroid/trachea	15 min	1.23 ± 0.47 %ID/g
C=Cc1cc(O)cc2nc(-c3ccc(O)c([76Br])c3)oc12	–	female C57BL/6 mouse, lung	1 h, high dose	0.27 ± 0.09 %ID/g

Some of these lines once more:
SMILES	assay	system	conditions	tissue uptake
COc1cc2ccnc(Cc3ccc(O[11CH3])c(OC)c3)c2cc1OC	–	Sprague-Dawley rats, liver	intravenous, 0.5 h	1.49 ± 0.464 %ID/g
